Assay results collected from several papers.
Protocols differ between the studies behind these lines. “And” joins repeats or separate records; there may be more than shown. ± marks the error that the study gave. Converted amounts (≈) assume the structure as drawn.
Organism: Mycobacterium tuberculosis

CCC(CO)NCCNC(CC)CO.CCOc1cc(C=NNC(=S)Nc2cccc(Cl)c2)ccc1OC(=O)CN1C(=O)CSC1=O — MIC (growth in combination; 192; with: reference drug at 1/2 MIC): 0.5 µg/mL
CCc1nc2cc(C(F)(F)F)ccn2c1C(=O)NCc1ccc2oc(-c3ccc(Cl)cc3)nc2c1 — MIC90 (microbial growth; H37RV): > 25 µM
CCOc1cc(C=NNC(=O)c2cccnc2)ccc1OC(=O)CN1C(=O)CSC1=O.NNC(=O)c1ccncc1 — MIC (growth in combination; 192; with: reference drug at 1/2 MIC): 0.0312 µg/mL
NC(=O)c1cc(-c2ccc(C(F)(F)F)nc2)ccc1OCCc1cccc(F)c1 — IC90 (growth; H37Rv-LP; 120 h): > 100 µM
Cc1cc(Oc2nc(N3CC[C@@H](c4ccncc4)C3)ncc2F)[nH]n1 — normalised growth (OD; H37Rv PurF CRISPRi knockdown; 0.000122 µM, with: anhydrotetracycline low): 100% and 101% and 98%
N#CC1(C(=O)NCCCNc2ccc(C(F)(F)F)cn2)CCCC1 — IC50 (bacterial growth, inhibitor; mmpL3-TetON): 0.31 µM
O=C(CN1C(=O)CSC1=O)Oc1ccc(/C=N/NC(=O)c2ccncc2)cc1 — MIC (Alamar blue; 192): 0.157 µM
NC(=O)c1cc(C2=CCOC2)ccc1OCCc1cccc(F)c1 — IC90 (growth; H37Rv-LP; 120 h): 1.8 ± 1.1 µM
COc1ccc(-c2ccc(Nc3cccc(S(=O)(=O)CCNCCc4cccs4)c3)nc2)cn1 — IC50 (microbial growth): 27.9 µM
COc1ccc2c(=O)c(C)c(-c3ccc(N4CCCCC4)cc3)[nH]c2c1 — IC90 (microbial growth; H37RV): 1.96 µM
COc1ccc(CC(=O)Nc2c(-c3cccs3)nc3cc(C)ccn23)cc1 — IC50 (bacterial growth, inhibitor; mmpL3-TetON): 4.91 µM
COc1ccccc1-c1ccc(OCCc2cccc(F)c2)c(C(N)=O)c1 — selectivity index (H37Rv-LP; reference: HepG2 CC50 over Mtb IC90): > 1
COc1ccc2ncc(F)c(C[C@H](O)[C@H]3OC[C@H](NCc4ccc5c(n4)NC(=O)CO5)CO3)c2c1 — FIC index (growth inhibition, checkerboard; H37Rv; with: pretomanid): 1
CCc1nc2ccc(OC(F)(F)F)cn2c1C(=O)NCc1ccc2oc(-c3ccc(Cl)cc3)nc2c1 — MIC90 (microbial growth; H37RV): > 10 µM
Cc1c(-c2ccc(N3CCCCC3)cc2)[nH]c2cc(F)cc(F)c2c1=O — kill rate (time-kill; H37Rv; concentration not given, 7 days): 0.05 h⁻¹
Cc1nc2cc(OC(F)(F)F)ccn2c1C(=O)NCc1ccc2oc(-c3ccc(OC(F)(F)F)cc3)nc2c1 — MIC90 (microbial growth; H37RV): > 10 µM
O=C(CN1C(=O)CSC1=O)Oc1ccc(/C=N/NC(=O)c2ccccn2)cc1Br — MIC (microbial growth, resazurin; H37RV): 4.19 µM
COC(=O)C(=O)[C@H](CC(C)C)NC(=O)[C@H](CCCCN)NC(=O)[C@H](Cc1ccccc1)NC(=O)OCc1ccccc1 — IC50 (bacterial growth; THP-1 macrophages, Mtb-lux; 72 h): 3.3 ± 1.1 µM
CCC(CO)NCCNC(CC)CO.CCOc1cc(C=NNC(=O)c2ccncc2)ccc1OC(=O)CN1C(=O)CSC1=O — MIC (growth in combination; 192; with: reference drug at 1/2 MIC): 0.5 µg/mL
O=C(Nc1ccc(F)c(F)c1F)NC12CC3CC(CC(C3)C1)C2 — IC50 (bacterial growth, inhibitor; mmpL3-TetON): 0.01 µM
C#CCN(Cc1ccc2nc(C)[nH]c(=O)c2c1)c1ccc(C(=O)N[C@@H](CCC(=O)OC)C(=O)OC)cc1 — MIC90 (bacterial growth, inhibitor; H37Rv wild type): > 100 µM
NC(=O)c1cc(-c2ccoc2)ccc1OCCc1cccc(F)c1 — IC90 (growth; H37Rv-LP; 120 h): 0.41 ± 0.23 µM
Cc1ccccc1/C=C/C(=O)N[C@@H](CO)C(=O)N[C@H](C(=O)N[C@H](Cc1ccccc1)C(=O)N[C@@H]1C(=O)N2[C@@H](CC(=O)O)C(=O)Nc3ccccc3[C@@]2(O)[C@@H]1O)[C@@H](C)O — MIC50 (mc2 6230; 5 days, 37 °C): inactive
O=C(NC12CC3CC(CC(C3)C1)C2)c1cc2cc(Cl)ccc2[nH]1 — IC50 (microbial growth): 0.09 µM
CN(C)c1ccc(-c2nc3ccccc3n2CCCOc2ccccc2)cc1 — MIC50 (microbial growth): > 10000 µM
NNC(=O)c1ccncc1.O=C(CN1C(=O)CSC1=O)Oc1ccc(C=NNC(=S)Nc2cccc(Cl)c2)cc1Cl — MIC (growth in combination; H37Rv; with: reference drug at 1/2 MIC): 0.0156 µg/mL
CCc1nc2ccccn2c1C(=O)NCc1ccc2oc(-c3ccc(OC(F)(F)F)cc3)nc2c1 — MIC90 (microbial growth; H37RV): > 25 µM
CCC(CO)NCCNC(CC)CO.COc1cc(C=NNC(=O)c2ccncc2)ccc1OC(=O)CN1C(=O)CSC1=O — FICI (two-drug checkerboard; H37Rv; concentration not given, unit not given; lower means more synergy): 2
COc1ccc2nccc(CC[C@H]3OC[C@H](NC(=O)c4ccc5c(c4)NC(=O)CO5)CO3)c2c1 — FIC index (growth inhibition, checkerboard; H37Rv; with: bedaquiline): 1
Cc1nc2ccc(OC(F)(F)F)cn2c1C(=O)NCc1ccc2oc(-c3ccc(Cl)cc3)nc2c1 — MIC90 (microbial growth; H37RV): > 10 µM
NC(=O)c1cc(-c2cccnc2)ccc1OCCc1cccc(F)c1 — IC90 (growth; H37Rv-LP; 120 h): 7.5 ± 2.9 µM
Cc1nc2ccc(Br)cn2c1C(=O)NCc1ccc2oc(-c3ccc(Cl)cc3)nc2c1 — MIC90 (microbial growth; H37RV): 0.2 µM (≈ 0.0992 µg/mL)
COc1ccc(CCNC(=O)C2(n3cnnn3)CCCCC2)cc1 — IC50 (bacterial growth, inhibitor; mmpL3-TetON): 0.32 µM
CCc1nc2cc(Br)ccn2c1C(=O)NCc1ccc2oc(-c3ccc(OC(F)(F)F)cc3)nc2c1 — MIC90 (microbial growth; H37RV): > 10 µM
CCN(Cc1ccc2c(c1)OCO2)C(=O)CSc1nc(NC)c2ccccc2n1 — IC50 (bacterial growth, inhibitor; mmpL3-TetON): 3.56 µM
Cc1nc2ccc(Br)cn2c1C(=O)NCc1ccc2oc(-c3ccc(OC(F)(F)F)cc3)nc2c1 — MIC90 (microbial growth; H37RV): 0.2 µM (≈ 0.109 µg/mL)
Clc1ccc(Nc2nc(-c3ccccn3)cs2)nc1 — IC50 (microbial growth): 2.32 µM
C#CCN(Cc1ccc2[nH]c(C)nc(=O)c2c1)c1ccc(C(=O)N[C@@H](CCC(=O)O)C(=O)O)cc1 — MIC90 (bacterial growth, inhibitor; H37Rv pptT conditional knockdown; PptT depleted, ATc withheld): > 100 µM

Excerpt of the above:
O=C(Nc1ccc(F)c(F)c1F)NC12CC3CC(CC(C3)C1)C2 — IC50 (bacterial growth, inhibitor; mmpL3-TetON): 0.01 µM
C#CCN(Cc1ccc2nc(C)[nH]c(=O)c2c1)c1ccc(C(=O)N[C@@H](CCC(=O)OC)C(=O)OC)cc1 — MIC90 (bacterial growth, inhibitor; H37Rv wild type): > 100 µM
NC(=O)c1cc(-c2ccoc2)ccc1OCCc1cccc(F)c1 — IC90 (growth; H37Rv-LP; 120 h): 0.41 ± 0.23 µM
